Published values of several laboratories.
Every numbered part comes from another study and shows a few of its results, in no order. Changes are numbered by the printed parent chain.

Sample 1 — target: CCND1, cyclin fold, Cln2 fusion (human); technique: yeast growth competition, sequencing; sample: yeast; notes: weak parent motif; relative to: not given; direction: higher = stronger binding
Starting sequence: BRCA2 docking peptide (human); PSIKRNLLNEFDR; partner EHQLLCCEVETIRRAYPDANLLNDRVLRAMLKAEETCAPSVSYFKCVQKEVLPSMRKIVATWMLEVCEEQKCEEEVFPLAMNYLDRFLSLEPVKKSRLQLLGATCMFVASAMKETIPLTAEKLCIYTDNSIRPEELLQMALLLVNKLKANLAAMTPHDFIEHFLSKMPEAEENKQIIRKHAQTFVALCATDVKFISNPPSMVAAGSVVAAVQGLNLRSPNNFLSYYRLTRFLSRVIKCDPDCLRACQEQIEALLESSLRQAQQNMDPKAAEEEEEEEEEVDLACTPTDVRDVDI
`R13D`: “normalised enrichment score” 1.19.
`S2M`: “normalised enrichment score” 0.484.
Under “normalised enrichment score”, `E10R` is recorded as 0.107.
`R5T` — result for “normalised enrichment score”: -0.468.
`K4E` — result for “normalised enrichment score”: 0.315.
Under “normalised enrichment score”, `L8G` is recorded as -0.725.
`S2L`: “normalised enrichment score” 0.67.
For `S2N`, “normalised enrichment score” read 0.22.
`L8I`: “normalised enrichment score” 0.576.
`R5K` — result for “normalised enrichment score”: 0.132.
`L7Y` — result for “normalised enrichment score”: 0.15.
`I3Q`: “normalised enrichment score” -0.54.
`E10W` — result for “normalised enrichment score”: 1.13.
`L8D` — result for “normalised enrichment score”: 0.269.
`K4T` — result for “normalised enrichment score”: -0.0384.
`N9C`: “normalised enrichment score” 0.142.
`L7D`: “normalised enrichment score” 0.107.
For `N9K`, “normalised enrichment score” read 0.613.

Sample 2 — technique: universal PBM; molecule type: double-stranded DNA, one strand shown; sample: in vitro; concentration: not given; direction: higher = stronger binding
Target: Sal-like protein 4, full length isoform B (SALL4, Homo sapiens, UniProt Q9UJQ4-2, residues 1-616)
Notes: 8-mer, flanks averaged, mean of replicates
The E-score of `AGTTCCCC` is reported as -0.206.
With `CCTGGTTA` the E-score was 0.0119.
The E-score of `ACGGTGAG` is reported as -0.15.
For `CGCATATC`, the E-score was 0.204.
The E-score of `TAGCCAAA` is reported as 0.173.
The E-score of `ATGATAAG` is reported as 0.26.
The E-score of `ATCTCGAC` is reported as 0.0485.
`AAGGGCAT` gave an E-score of 0.00885.
`AAAGAGCA` gave an E-score of 0.032.
With `CGTGTCGC` the E-score was -0.103.
For `AATCGACG`, the E-score was 0.0186.
With `AATCCAGG` the E-score was -0.113.
`GGAGATCC` has an E-score of -0.24.
With `CCGTGAGA` the E-score was -0.224.
With `CGTGGCTC` the E-score was -0.288.
`ATAAGTAT` gave an E-score of 0.317.
`CGCGACGC` has an E-score of -0.312.
`ATGGGCTG` has an E-score of -0.166.
The E-score of `CCTTCTAC` is reported as -0.0928.
`CGAGTTAA` has an E-score of -0.0296.

Sample 3 — technique: protein binding microarray; molecule type: double-stranded DNA, one strand shown; sample: in vitro; concentration: not given; relative to: not given; direction: higher = stronger binding
Target: Histone acetyltransferase KAT6A, both winged helices, GST fusion (KAT6A, Homo sapiens, UniProt Q92794, residues 1-181)
Notes: 8-mer, flanks averaged, mean of 2 arrays, mostly near background
Target sequence (chain): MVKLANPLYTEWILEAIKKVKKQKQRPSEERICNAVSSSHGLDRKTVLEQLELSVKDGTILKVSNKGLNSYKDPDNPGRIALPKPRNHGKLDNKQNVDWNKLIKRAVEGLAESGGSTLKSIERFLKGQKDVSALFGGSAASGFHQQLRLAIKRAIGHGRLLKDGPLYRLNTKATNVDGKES
`GGCAAGAA` has an E-score of -0.0435.
With `AGGGTACT` the E-score was -0.177.
For `AGGGCGTC`, the E-score was 0.195.
For `ACAAGCTG`, the E-score was -0.183.
`GGGCCTTA` gave an E-score of 0.0318.
The E-score of `CTTATTGA` is reported as -0.2.
`GGCTTGAC` gave an E-score of -0.0751.
`CCTCCAGC` gave an E-score of -0.0983.
`AGAGCCCG` gave an E-score of -0.0215.
For `ATGGTCGG`, the E-score was 0.0617.
The E-score of `TGAGCTAA` is reported as -0.0833.
With `CCGTCCTA` the E-score was 0.13.
With `CTACCTCC` the E-score was -0.141.
The E-score of `CGGAAGTA` is reported as 0.147.
For `AGCTACCC`, the E-score was -0.157.
The E-score of `ACTGGACT` is reported as -0.208.

Sample 4 — target: JUN, bZIP domain (human); technique: DHFR protein complementation; sample: yeast; relative to: wild-type JUN-FOS pair; direction: higher = stronger binding
Notes: single substitutions, most at no-binding floor
Starting sequence: JUN, bZIP domain (human); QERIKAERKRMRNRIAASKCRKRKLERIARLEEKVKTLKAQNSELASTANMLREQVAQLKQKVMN; partner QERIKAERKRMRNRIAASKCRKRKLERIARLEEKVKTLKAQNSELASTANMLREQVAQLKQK
With `K36E` the binding fitness was -0.235 natural log.
`Q55N` gave a binding fitness of -1.1 natural log.
With `N42V` the binding fitness was -1.18 natural log.
`A49M` gave a binding fitness of -0.655 natural log.
`E54T` has a binding fitness of -0.448 natural log.
`N42S` gave a binding fitness of -1.06 natural log.
The binding fitness of `E44M` is reported as -0.217 natural log.
`S47Q` gave a binding fitness of -0.0828 natural log.
The binding fitness of `E32L` is reported as -0.376 natural log.

Repeated from above (sample 1):
`S2M`: “normalised enrichment score” 0.484.
Under “normalised enrichment score”, `E10R` is recorded as 0.107.
`R5T` — result for “normalised enrichment score”: -0.468.
`K4E` — result for “normalised enrichment score”: 0.315.
Under “normalised enrichment score”, `L8G` is recorded as -0.725.
`S2L`: “normalised enrichment score” 0.67.
